# Literature values, collected from citations in different studies.
# Lines come from different studies, so protocols differ. ± gives the spread as reported.
# UniProt O43570, sequence (whole entry, looked up): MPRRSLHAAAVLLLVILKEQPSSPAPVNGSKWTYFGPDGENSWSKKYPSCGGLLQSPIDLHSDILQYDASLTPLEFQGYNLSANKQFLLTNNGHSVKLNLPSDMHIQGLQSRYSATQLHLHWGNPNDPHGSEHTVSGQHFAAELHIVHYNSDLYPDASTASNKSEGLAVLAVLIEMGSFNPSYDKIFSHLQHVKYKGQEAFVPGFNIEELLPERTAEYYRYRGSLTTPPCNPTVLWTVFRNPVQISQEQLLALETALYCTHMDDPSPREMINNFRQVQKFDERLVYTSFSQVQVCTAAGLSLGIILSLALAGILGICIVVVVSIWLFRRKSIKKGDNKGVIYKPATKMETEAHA
Structure (SMILES),tested on,assay,system,setting,endpoint,value
CNCCCOc1cc(F)c(-c2c(Cl)nc3ncnn3c2N[C@@H](C)C(F)(F)F)c(F)c1,,,mouse,oral,oral bioavailability,61%
C=C[C@@H]1C[C@]1(NC(=O)[C@@H]1C[C@@H](Oc2ncc(OC)c3cc(Cl)ccc23)CN1C(=O)[C@@H](NC(=O)OC(C)(C)C)C(C)(C)C)C(=O)NS(=O)(=O)C1CC1,,,isolated perfused rabbit heart,10 µM,heart rate change,-11%
O=[N+]([O-])c1ccc(/N=N/c2ccc(N(CCS(=O)(=O)O)CCS(=O)(=O)O)cc2)cc1,,,water,10 µM,pKa,2.1
Cc1cc(S(N)(=O)=O)c(Cl)cc1NC1CCCCC1,"CA12 (Homo sapiens, UniProt O43570)",fluorescent thermal shift,,"pH 7.0, 37 °C, observed",Kd,0.42 µM
C=C[C@@H]1C[C@]1(NC(=O)[C@@H]1C[C@@H](Oc2ncc(OC)c3ccccc23)CN1C(=O)[C@@H](NC(=O)OC(C)(C)C)C(C)(C)C)C(=O)NS(=O)(=O)C1CC1,,,rat,30 mg/kg,clearance,9.8 mL/min/kg
N=S(=O)(c1ccccc1)N1CCCCC1 (centres unmarked),,,HCl buffer,"24 h, pH 1",recovery,100%
O=C([O-])CN1CCN(CC(=O)[O-])CCN(CC(=O)c2ccccc2)CCN(CC(=O)[O-])CC1.[Eu+3],,,,excitation at 265 nm,Eu3+ luminescence quantum yield,0.058
COC(=O)c1cc(=O)n(C)c2cc(-c3ccc(OC)cc3)sc12,,,dichloromethane,10 µM,excitation maximum,412 nm
CCOc1ccc(NC(=S)N(CCO)Cc2cc3cc(C)cc(C)c3[nH]c2=O)cc1,,,mouse,oral,oral bioavailability,21%
COc1cc(-c2cncc(-c3ccc(N4CCNCC4)cc3)c2C)cc(OC)c1OC,,,SD-1 mouse male,"oral, 10 mg/kg, 2 h",brain/plasma ratio,0.9
OC[C@@H]1[C@@H](O)[C@H](O)[C@@H](O)c2nccn21,,,,,pKa,6.1
COc1cc(F)c(C(C)C)cc1C1=C(CN2C(=O)O[C@H](c3cc(C(F)(F)F)cc(C(F)(F)F)c3)[C@@H]2C)CC(C)(C)CC1,,,hamster,"intravenous, single dose",Vd,0.99 to 1.11 L/kg
FC1(F)[C@H]2O[C@@H]1[C@H](COCc1ccccc1)[C@@H](COCc1ccccc1)O2,,,,pH 7.4,hydrolytic half-life,> 720 h
CN1CCC(C)(C)c2cc3c(-c4ccc(C(=S)N5CCCCC5)s4)c4ccc(=[N+](C)C)cc-4sc3cc21,,,methanol,,absorption maximum,598 nm
O=c1c2nc[nH]c2nc2ncccn12,,"oxidation, substrate",rat liver cytosol,,Km,105 µM
COC(=O)c1ccc(/C=N/NS(=O)(=O)c2ccc(OC)c(OC)c2)cc1,,,,,pKa,6.35
C=C[C@@H]1C[C@]1(NC(=O)[C@@H]1C[C@@H](Oc2cc(-c3ccccc3)nc3cc(OC)ccc23)CN1C(=O)[C@@H](NC(=O)OC(C)(C)C)C(C)(C)C)C(=O)NS(=O)(=O)C1CC1,,,"dog, plasma","intravenous, dose not given",half-life,0.6 h
CC1=C(C2=C(C)C(=O)c3c(cc(O)c(O)c3C(C)C)C2=O)C(=O)c2cc(O)c(O)c(C(C)C)c2C1=O (racemic),,,rat liver microsomes,40 min,degradation,53%
Cc1ccccc1-c1cc(N2CC[N+](C)([O-])CC2)ncc1N(C)C(=O)C(C)(C)c1cc(C(F)(F)F)cc(C(F)(F)F)c1,,,"healthy volunteers, plasma","oral, 450 mg, single dose, netupitant alone",Cmax,228 ng/mL
CSCCN(CCSC)CCc1ccccn1,,,,mixed-mode protonation constant,log KH1,7.33
C=C[C@@H]1C[C@]1(NC(=O)[C@@H]1C[C@@H](Oc2nccc3ccccc23)CN1C(=O)[C@@H](NC(=O)OC(C)(C)C)C(C)(C)C)C(=O)NS(=O)(=O)C1CC1,,,rat,"intravenous, dose not given",clearance,19 mL/min/kg
Cc1cc(N)nc(CC2CNCC2OCCNCC(F)(F)c2cccc(F)c2)c1 (centres unmarked),,,,amine next to CF2 group,pKa,5.5
O=P(O)(O)CN(CCN(CP(=O)(O)O)CP(=O)(O)O)CP(=O)(O)O.[175Yb+3],,,bone,4 h,tissue uptake,4.37 %ID/g
CN1CCN(c2cc(-c3ccccc3CO)c(N(C)C(=O)C(C)(C)c3cc(C(F)(F)F)cc(C(F)(F)F)c3)cn2)CC1,,,"patients, plasma","oral, dose not given, netupitant-palonosetron combination, added: docetaxel 75 to 100 mg/m^2 IV",AUC(0-inf),5950 ng·h/mL
CN1C(=O)[C@@H](Cc2ccc(O)cc2)NC(=O)CNC(=O)[C@H](Cc2ccc3ccccc3c2)NC(=O)[C@H](CCCNC(=N)N)NC(=O)[C@H]1CCCNC(=O)c1ccc(CNC(=O)CN2CCN(CC(=O)O)CCN(CC(=O)O)CCN(CC(=O)O)CC2)cc1 [gallium-68 labelled],,PET dosimetry,"human patients, kidneys",,absorbed dose coefficient,0.035 mGy/MBq
OCC1CCN(c2ccc(-c3cc4cc(O)ccc4[nH]3)c([18F])n2)CC1,,PET,"mice, rats, nonhuman primates",,initial brain uptake,0.5 to 0.65 SUV
Cc1ccccc1-c1cc(N2CCNCC2)ncc1N(C)C(=O)C(C)(C)c1cc(C(F)(F)F)cc(C(F)(F)F)c1,,,"healthy volunteers, plasma","oral, 450 mg, single dose, added: palonosetron 0.75 mg",Tmax,19.7 h
CCCC(CCC)C(=O)[O][Pt]([Cl])([Cl])[O]C(C)=O.N.N,,shake flask,octanol/water,,logP,0.17 ± 0.02
CC(=O)O[C@H]1C2=C(C(=O)C(OC(=O)c3ccc([N+](=O)[O-])cc3)=C(C(C)C)C2=O)[C@@]2(C)CCCC(C)(C)[C@@H]2[C@@H]1O,HL-60,cell growth,,,GI50,5 to 10 µM
CCCCCCc1ccc(Oc2ccccc2C#N)c(O)c1,,,mouse,40 mg/kg,clearance,180 mL/min/kg
Cc1cc(/C=C2\CN(C(C)C)C/C(=C\c3cc(C)c(O)c(C)c3)C2=O)cc(C)c1O,,,water,,solubility,~32.9 µg/mL
CCn1nc(Cl)c2c1-c1cnc(N)c(c1)O[C@H](C)c1cc(F)ccc1-c1nn(C)cc1C2,,,"human, plasma","oral, 150 mg once daily","Cmax, free, steady state",40 nM
CCN(CC)C(=S)c1ccc(-c2c3ccc(=[N+](C)C)cc-3sc3cc4c(cc23)C(C)(C)CCN4C)s1,,,methanol,,molar extinction coefficient,63000 M⁻¹ cm⁻¹
C=C[C@@H]1C[C@]1(NC(=O)[C@@H]1C[C@@H](Oc2nccc3c(OC)cccc23)CN1C(=O)[C@@H](NC(=O)OC(C)(C)C)C(C)(C)C)C(=O)NS(=O)(=O)C1CC1,,,isolated perfused rabbit heart,10 µM,heart rate change,-9%
COc1cc2c(NC3CCN(C)CC3)nc(N3CCCN(C)CC3)nc2cc1OCc1ccccc1,,,rat liver microsomes,,intrinsic clearance,62 µL/min/mg protein
CC(C)(C)[C@H](NC(=O)[C@H](CCONC(=N)N)NC(=O)Cc1ccc(CNC(=N)N)cc1)C(=O)N[C@@H](CCONC(=N)N)C(=O)NCc1ccc(C(=N)N)cc1,,,mouse,intraperitoneal,tolerated dose,15 mg/kg
CC(C)S(=O)(=O)c1cccc(O)c(=O)c1O,,,,,pKa1,3.8
Oc1cc2nc(c1)CNCCCNCCCNCCNCCCNCCCNC2,,,0.15 M NaClO4,"298.1 K, H5L5+ + H+ ⇄ H6L6+",log K,4.14
C=CC(=O)N1CCC[C@@H](n2nc(-c3ccc4ccccc4c3)c3c(N)ncnc32)C1,"EGFR (Homo sapiens, UniProt P00533, L858R)",,,,kinact,0.14 ± 0.01 min⁻¹
CC1(N(CC(=O)[O-])CC(=O)[O-])CN(CC(=O)[O-])CCN(CC(=O)[O-])C1.[Gd+3],,,,,log K(GdL),20.2
O=C([O-])c1cccc(CNCCNCc2cccc(C(=O)[O-])n2)n1.[64Cu+2],,refers to: 64Cu,mouse serum,"24 h, ambient",transchelation to serum proteins,23%
CC(=O)O[C@H]1C2=C(C(=O)C(O)=C(C(C)C)C2=O)[C@@]2(C)CCCC(C)(C)[C@@H]2[C@@H]1O,MOLT-3,,,,GI50,10 to 30 µM
O=C(O)CCc1ccc(O)c(CN(CCN(CC(=O)O)Cc2cc(CCC(=O)NCCCCCC(=O)NCCCC[C@H](NC(=O)N[C@@H](CCC(=O)O)C(=O)O)C(=O)O)ccc2O)CC(=O)O)c1,,,,,logP,-2.91 ± 0.06
COCCOCCOCCOCCC(=O)NCc1cc(CNC(=O)CCOCCOCCOCCOC)cc(-c2cc3cc4nc(c(OC)c5[nH]c(cc6nc(cc2[nH]3)CC6(C)C)cc5-c2cc(CNC(=O)CCOCCOCCOCCOC)cc(CNC(=O)CCOCCOCCOCCOC)c2)CC4(C)C)c1,,,DMF,room temperature,Qy/B absorption intensity ratio,0.86

# Excerpt of the above:
Structure (SMILES),tested on,assay,system,setting,endpoint,value
N=S(=O)(c1ccccc1)N1CCCCC1 (centres unmarked),,,HCl buffer,"24 h, pH 1",recovery,100%
O=[N+]([O-])c1ccc(/N=N/c2ccc(N(CCS(=O)(=O)O)CCS(=O)(=O)O)cc2)cc1,,,water,10 µM,pKa,2.1
C=C[C@@H]1C[C@]1(NC(=O)[C@@H]1C[C@@H](Oc2cc(-c3ccccc3)nc3cc(OC)ccc23)CN1C(=O)[C@@H](NC(=O)OC(C)(C)C)C(C)(C)C)C(=O)NS(=O)(=O)C1CC1,,,"dog, plasma","intravenous, dose not given",half-life,0.6 h
CCOc1ccc(NC(=S)N(CCO)Cc2cc3cc(C)cc(C)c3[nH]c2=O)cc1,,,mouse,oral,oral bioavailability,21%
CCCC(CCC)C(=O)[O][Pt]([Cl])([Cl])[O]C(C)=O.N.N,,shake flask,octanol/water,,logP,0.17 ± 0.02
CN1CCC(C)(C)c2cc3c(-c4ccc(C(=S)N5CCCCC5)s4)c4ccc(=[N+](C)C)cc-4sc3cc21,,,methanol,,absorption maximum,598 nm
COCCOCCOCCOCCC(=O)NCc1cc(CNC(=O)CCOCCOCCOCCOC)cc(-c2cc3cc4nc(c(OC)c5[nH]c(cc6nc(cc2[nH]3)CC6(C)C)cc5-c2cc(CNC(=O)CCOCCOCCOCCOC)cc(CNC(=O)CCOCCOCCOCCOC)c2)CC4(C)C)c1,,,DMF,room temperature,Qy/B absorption intensity ratio,0.86
